Experimental data of several laboratories.
Protocols differ between the studies behind these lines. Several values in a cell are separate wells, animals, samples, runs or records. ± marks the error that the study gave.
ZBTB11/CRBN: ZBTB11/CRBN (Homo sapiens, UniProt O95625+Q96SW2)

Structure (SMILES) = c1ccc(C(NCc2cccnc2)(c2ccccc2)c2ccccc2)cc1; tested on = KCNQ1 (Homo sapiens, UniProt P51787); test = ion current, inhibitor, whole-cell patch clamp; system = tsA201; conditions = tail current, leak-subtracted; quantity = Hill coefficient; result = 0.86
Structure (SMILES) = Nc1ccc(C(=O)O)cc1; tested on = BEST1, with wild-type BEST1 (Homo sapiens, UniProt O76090, Q293K); test = ion current, whole-cell patch clamp; system = HEK293 co-expressing mutant and wild-type; conditions = concentration not given, voltage -80 mV; quantity = current density; result = -12.9 pA/pF and -11.6 pA/pF and -3.21 pA/pF and -9.56 pA/pF and -32.6 pA/pF and -9.46 pA/pF
Structure (SMILES) = O=C[C@H](O)[C@@H](O)[C@H](O)[C@H](O)COP(=O)(O)O; test = binding, equilibrium dialysis LC-MS; conditions = 5 µM, thermostabilized A2AR-BRIL construct; how to read = reference: no-protein control, direction not given; quantity = z-scored log2 fold change; result = 0.126
Structure (SMILES) = Cc1n[nH]c2ccc(-c3cc(OC[C@@H](N)Cc4ccccc4)cnc3-c3ccoc3)cc12; tested on = Negative regulator of the PHO system (PHO85, Candida albicans, UniProt Q9HGY5); test = kinase binding, competitor, MIB/MS competition, measured: PHO85; system = Candida albicans cell lysate; conditions = 100 nM; how to read = reference: DMSO; quantity = log2 fold change; result = 0.238
Structure (SMILES) = C=CC(=O)N1CCC(COCC(=O)N2CCN(c3nc(-c4cnc(N)nc4C(F)F)nc(N4CCOC[C@@H]4C)n3)CC2)CC1; tested on = GAK (Homo sapiens, UniProt O14976); test = KINOMEscan; conditions = 1 µM; quantity = remaining binding; result = 91%
Structure (SMILES) = CC(NC(=O)CCCc1ccc2ccc3cccc4ccc1c2c34)C(=O)NO (stereo not shown); tested on = HDAC8 (Homo sapiens, UniProt Q9BY41); test = ITC; system = Tris-HCl buffer; conditions = 298 K; quantity = TΔS°; result = 5.3 kcal/mol
Structure (SMILES) = OC[C@H]1OC(O)[C@H](O)[C@@H](O)[C@@H]1O (stereo partly shown); tested on = Hexokinase-3 (HK3, Homo sapiens, UniProt P52790, R480W); test = substrate inhibition; conditions = mutant R480W, partial substrate inhibition model, with: ATP 20 mM; quantity = kcat; result = 38 ± 5 s⁻¹
Structure (SMILES) = CCCCc1nc2c(N)nc3ccccc3n2n1; tested on = TLR7 (Homo sapiens, UniProt Q9NYK1); test = reporter gene, agonist, NF-κB reporter; system = HEK-Blue TLR7; quantity = EC50; result = inactive
Structure (SMILES) = Nc1ncnc2c1ncn2[C@@H]1O[C@H](CSCC[C@H](N)C(=O)O)[C@@H](O)[C@H]1O; tested on = O-methyltransferase (Sorghum bicolor, UniProt A0A1B6PFV1); test = isothermal titration calorimetry; conditions = concentration not given, apo protein; quantity = binding stoichiometry; result = 0.89 ± 0.059 sites
Structure (SMILES) = CCOc1cc(-c2nncn2C)ccc1Nc1ncc2cc(C)nc(NCC(C)(C)C)c2n1; tested on = NLK (Homo sapiens, UniProt Q9UBE8); test = binding, LanthaScreen binding; conditions = 1 µM; quantity = displacement; result = 78%
Structure (SMILES) = CC(=O)N[C@H](C(=O)N1C[C@H](O)C[C@H]1C(=O)NCc1ccc(-c2scnc2C)cc1)C(C)(C)SCCCCCCNC(=O)C[C@@H]1N=C(c2ccc(Cl)cc2)c2c(sc(C)c2C)-n2c(C)nnc21; tested on = BRD4/VHL, BD2; with elongins B/C (Homo sapiens, UniProt O60885+P40337, A384K/E383V/K378Q); test = ITC; conditions = 25 °C, BRD4 BD2 mutant, ternary; quantity = ΔH; result = -6.2 ± 0.9 kcal/mol
Structure (SMILES) = CC[C@@H]1[C@H](F)C(=O)N[C@@H]1COc1nccc2cc(C(N)=O)c(OC)cc12; tested on = CSNK1G2 (Homo sapiens, UniProt P78368); test = ATP-site probe binding, ActivX profiling; system = THP-1 cell lysate; conditions = 0.2 mM, Lys2 site; quantity = inhibition; result = 67%
Structure (SMILES) = O=C(O)c1ccc(Nc2ncc3c(n2)-c2ccc(Cl)cc2C(c2c(F)cccc2F)=NC3)cc1; tested on = PKCµ(h); test = kinase activity; conditions = 1 µM; quantity = remaining activity; result = 112%
Structure (SMILES) = O=C(O)CCC(=O)c1ccc2c(c1)CCC(=O)N2; tested on = Ubiquitin carboxyl-terminal hydrolase 39, ZnF-UBD domain (Homo sapiens, UniProt Q53GS9); quantity = Kd; result = > 1000 µM
Structure (SMILES) = O=[N+]([O-])c1cc(C(F)(F)F)ccc1NCc1ccsc1; tested on = Endothelial PAS domain-containing protein 1, PAS-B domain (EPAS1, Homo sapiens, UniProt Q99814, N288Q); test = binding, ITC, reverse mode; quantity = ΔH; result = -5.65 ± 0.21 kcal/mol
Structure (SMILES) = Nc1ncnc2c1ncn2[C@@H]1O[C@H](COP(=O)(O)OP(=O)(O)OP(=O)(O)O)[C@@H](O)[C@H]1O; tested on = CKMT1A (Homo sapiens, UniProt P12532, D359N); test = substrate, ADP-Glo luminescence; conditions = pH 8.5, forward reaction, D321N mutant, with: second substrate in excess; quantity = Km; result = 110 ± 20 µM
Structure (SMILES) = Nc1ncnc2c1ncn2[C@@H]1O[C@H](COP(=O)(O)CP(=O)(O)OP(=O)(O)O)[C@@H](O)[C@H]1O; tested on = P2X purinoceptor 1 (P2RX1, Homo sapiens, UniProt P51575, D170A); test = saturation binding; system = HEK293; conditions = 52 nM; quantity = specific binding; result = 183 CCPM and 159 CCPM and 224 CCPM
Structure (SMILES) = NCCCC[C@H](N)C(=O)Nc1ccc2ccccc2c1; tested on = rat neuron-specific aminopeptidase; test = substrate; conditions = MW 110 kDa; quantity = kcat; result = 30.8 s⁻¹
Structure (SMILES) = O=C(O)CC[C@H](NC(=O)N[C@@H](CCCCNC(=O)[C@H](Cc1ccc2ccccc2c1)NC(=O)CCCCCNC(=O)CN1CCN(CC(=O)O)CCN(CC(=O)O)CCN(CC(=O)O)CC1)C(=O)O)C(=O)O [gallium-68 labelled]; test = gamma counting; system = mouse, PC-3 xenograft, blood; conditions = intravenous, 3.7 MBq, 2 h; quantity = tissue uptake; result = 7.03 ± 0.31 %ID/g
Structure (SMILES) = CCC(C)(NCCc1ccc(OC)c(Cl)c1)c1cccc(NC2=CC(=O)N(C3CCC(=O)NC3=O)C2=O)c1 (stereo not shown); tested on = ZBTB11/CRBN; test = protein degradation, degrader, HiBiT luminescence; system = MOLT-4; quantity = Dmax; result = 42%
Structure (SMILES) = Cc1nc(CSc2nc(SCc3ccc(C(C)C)cc3)nc(=O)[nH]2)cs1; tested on = TOP2A (Homo sapiens, UniProt P11388); test = DNA cleavage; conditions = 125 µM; quantity = mean linear DNA; result = 2.7%
Structure (SMILES) = CC(C)OCCn1c(=S)[nH]c(=O)c2[nH]ccc21; tested on = Myeloperoxidase (MPO, Homo sapiens, UniProt P05164); test = H2O2 consumption, inhibitor, H2O2 electrode; conditions = 0.45 µM, 0.2 s; quantity = H2O2 concentration; result = -0.483 µM
Structure (SMILES) = C=CC(=O)N1CCC(C(=O)NCC(=O)N2CCN(c3nc(-c4cnc(N)nc4C(F)F)nc(N4CCOCC4)n3)CC2)CC1; tested on = PAK3 (Homo sapiens, UniProt O75914); test = KINOMEscan; conditions = 1 µM; quantity = remaining binding; result = 96%
Structure (SMILES) = Nc1ncnc2c1ncn2[C@H]1C[C@H](O)[C@@H](CO)O1; tested on = deoxyribonucleoside phosphotransferase I (Trichomonas vaginalis); test = substrate; conditions = with: p-nitrophenylphosphate 100 mM; quantity = Km; result = 2980 ± 450 µM
Structure (SMILES) = CN1CCN(c2cc(-c3ccncc3)c(-c3ccc4ccccc4c3)nn2)CC1; tested on = PTGER4 (Homo sapiens, UniProt P35408); test = agonist, FLIPR; conditions = 12.5 µM; quantity = activation; result = -2.8%
Structure (SMILES) = CCN(CCO)CCCC(C)Nc1ccnc2cc(Cl)ccc12 (stereo not shown); tested on = SCN5A (Homo sapiens, UniProt Q14524); test = sodium current, whole-cell patch clamp; conditions = 30 µM, without ATX-II; quantity = half-inactivation voltage (V1/2); result = -78.1 mV and -93.7 mV and -86.7 mV
Structure (SMILES) = NCCCCC(=O)O; tested on = SLC6A6 (Homo sapiens, UniProt P31641, G62A); test = binding, microscale thermophoresis; conditions = 7.81 µM, room temperature, with: 50 nM labelled protein; how to read = higher = more binding; quantity = normalised MST signal; result = -0.0708
Structure (SMILES) = O=c1nc(SCc2cc(F)cc(C(F)(F)F)c2)nc(SCc2csc3ccc(Cl)cc23)[nH]1; tested on = TOP2B (Homo sapiens, UniProt Q02880); test = decatenation; conditions = 1.95 µM, replicate 1; quantity = decatenated DNA; result = 100%
Structure (SMILES) = O=C(O)C[C@H](Nc1ncnc2c1ncn2[C@@H]1O[C@H](COP(=O)(O)O)[C@@H](O)[C@H]1O)C(=O)O; test = binding, equilibrium dialysis LC-MS; conditions = 5 µM, thermostabilized A2AR-BRIL construct; how to read = reference: no-protein control, direction not given; quantity = z-scored log2 fold change; result = 0.0421
Structure (SMILES) = O=C(CCCc1ccccc1)C(=O)NCCc1ccc(Oc2ccc(C(F)(F)F)cn2)cc1; tested on = APEH (Homo sapiens, UniProt P13798); test = inhibitor, FP-biotin chemoproteomics; system = HepG2; conditions = concentration not given; how to read = reference: DMSO, lower = stronger inhibition; quantity = probe-enriched protein abundance; result = 544000 a.u. and 498000 a.u. and 506000 a.u.
Structure (SMILES) = NCCCC(=O)O; tested on = SLC6A6 (Homo sapiens, UniProt P31641, Y138A); test = binding, microscale thermophoresis; conditions = 62.5 µM, room temperature, with: 50 nM labelled protein; how to read = higher = more binding; quantity = normalised MST signal; result = 0.0395
Structure (SMILES) = Nc1nc2c(ncn2[C@@H]2O[C@H](COP(=O)(O)O)[C@@H](O)[C@H]2O)c(=O)[nH]1; tested on = GUK1 (Homo sapiens, UniProt Q16774); test = enzyme activity, NADH-coupled; conditions = 2000 µM, with: KCl 50 mM; quantity = reaction velocity; result = 0.107 µM/s and 0.112 µM/s and 0.105 µM/s
Structure (SMILES) = CCCCCCCC(=O)c1cc(OC)c(OC)c(OC)c1CC(=O)OCC; tested on = NR5A2 (Homo sapiens, UniProt O00482); test = reporter gene, Gal4 hybrid reporter; conditions = 10 µM; how to read = reference: vehicle; quantity = activation; result = 0.77 fold
Structure (SMILES) = CCOC(=O)C(CCCSC)NC(=O)c1ccc(C2CC2)c(Cc2ccc(F)cc2)n1 (stereo not shown); tested on = CNR2 (Homo sapiens, UniProt P34972); test = radioligand binding; how to read = reference: CB1 over CB2 (human); quantity = Ki ratio; result = 4
Structure (SMILES) = CC[C@@H]1C(=O)N(C)c2cnc(Nc3ccc(C(=O)N[C@H]4CC[C@H](N5CCN(CC6CC6)CC5)CC4)cc3OC)nc2N1C(C)C; tested on = NLRP3 inflammasome (mouse); system = mouse BMDM; conditions = 10 µM; quantity = inhibition; result = -87%
Structure (SMILES) = Nc1nc2c(ncn2[C@@H]2O[C@@H]3COP(=O)(O)O[C@H]3[C@H]2O)c(=O)[nH]1; tested on = Cone cGMP-gated channel (Morone saxatilis, UniProt Q3I0N1+Q3I0N2); test = channel current, agonist, suction electrode; system = cone outer segments; conditions = single cone shown, with: 20 µM Ca2+; quantity = Hill coefficient; result = 2.15
Structure (SMILES) = CC(C)C[C@H](NC(=O)C[C@H](O)[C@H](CC(C)C)NC(=O)[C@H](Cc1c[nH]cn1)NC(=O)CNC(=O)[C@@H](NC(=O)[C@H](C)NC(=O)[C@H](Cc1c[nH]c2ccccc12)NC(=O)[C@H](CCC(N)=O)NC(=O)[C@@H](Cc1ccccc1)NC(=O)COCCOCCNC(=O)CCC(C(=O)O)N1CCN(CC(=O)O)CCN(CC(=O)O)CC1)C(C)C)C(N)=O (stereo partly shown) [lutetium-177 labelled]; system = female BALB/c nu/nu mice, intestines; conditions = intravenous, 50 pmol, 24 h; quantity = tissue uptake; result = 0.03 ± 0.02 %ID/g
Structure (SMILES) = NS(=O)(=O)c1nnc(NC(=O)CN2CCC(F)CC2)s1; tested on = Alpha-carbonic anhydrase (Enterococcus faecium, UniProt Q3XYE8); test = CO2 hydration, inhibitor, stopped-flow kinetics; quantity = Ki; result = 0.0298 µM
Structure (SMILES) = O=C(O)CSc1nnc(NC(=O)COc2ccccc2)s1; tested on = Ubiquitin carboxyl-terminal hydrolase 20, ZnF-UBD domain (USP20, Homo sapiens, UniProt Q9Y2K6); quantity = Kd; result = 401 µM
Structure (SMILES) = O=C1CCC(N2C(=O)C=C(Nc3cccc(C(NCCc4ccc(C(F)(F)F)c(Cl)c4)c4ccccc4)c3)C2=O)C(=O)N1 (stereo not shown); tested on = ZBTB11/CRBN; test = protein degradation, degrader, HiBiT luminescence; system = MOLT-4; quantity = Dmax; result = 38%
